Results of several laboratories.
Every numbered part comes from another study and shows a few of its results, in no order. Numbers after ± are the reported error.

Block 1 — read-out: enzyme activity; mode: inhibitor; tested at: 20 µM; setting: primary screen
Target: Replicase polyprotein 1ab, main protease (rep, Severe acute respiratory syndrome coronavirus 2, UniProt P0DTD1)
Compound	inhibition
Nc1nc(=S)c2ncn([C@@H]3O[C@H](CO)[C@@H](O)[C@H]3O)c2[nH]1	100%
Cc1ccnc2c1CCCC2C(N)=S (stereo not drawn)	41.5%
Oc1cc(CNC(=S)/C=C/c2cc(O)c(O)c(Br)c2)cc(O)c1O	79.4%

Block 2 — read-out: enzyme activity; mode: inhibitor; tested at: 20 µM
Target: Replicase polyprotein 1ab, polymerase (rep, Severe acute respiratory syndrome coronavirus 2, UniProt P0DTD1)
SMILES	inhibition [%]
Clc1cccc(Cl)c1CSc1nnc(-c2cnccn2)s1	0.93
Cc1ncc(CN2CC=C(c3ccccc3)CC2)c(N)n1	-4.29
CC(C)Nc1cccnc1N1CCN(C(=O)c2cc3cc(NS(C)(=O)=O)ccc3[nH]2)CC1	4.74
CC1(C)Oc2ccc(C#N)cc2[C@@H](OC2=CC(=O)CC2)[C@@H]1O	-4.67
Cc1ccc(S(=O)(=O)Nc2ccc3c(c2)c(C(=O)C(F)(F)F)cn3CC(=O)N[C@@H](CC(C)C)C(=O)O)cc1	-3.41
CCCCCCCC(=O)N[C@H](CN1CCCC1)[C@H](O)c1ccc2c(c1)OCCO2	-7.72
C[C@@H]1CN(CC(=O)Nc2ccc3c(c2)Cc2cccc(-c4cc(=O)cc(N5CCOCC5)o4)c2S3)C[C@H](C)O1	-4
COc1ccc(/C=C/C(=O)Nc2ccccc2C(=O)O)cc1OC	9.3
C[C@]12CC[C@@H](O)C[C@@H]1CC[C@@H]1[C@@H]2CC[C@]2(C)C(=O)CC[C@@H]12	5.43
CCOC(=O)Nc1ccc2c(c1)N(C(=O)CN(C)C)c1ccccc1CC2	-3.4
CC(C)C[C@H](N)C(=O)O	1.21
CC[C@H](C)[C@H](N)C1=N[C@H](C(=O)N[C@@H](CC(C)C)C(=O)N[C@H](CCC(=O)O)C(=O)N[C@H](C(=O)N[C@H]2CCCCNC(=O)[C@H](CC(N)=O)NC(=O)[C@@H](CC(=O)O)NC(=O)[C@H](Cc3cnc[nH]3)NC(=O)[C@@H](Cc3ccccc3)NC(=O)[C@H]([C@@H](C)CC)NC(=O)[C@@H](CCCN)NC2=O)[C@@H](C)CC)CS1	5.04
CCS(=O)(=O)N(Cc1cccnc1)c1cccc(-c2ccc(C#N)cc2)c1	14.3
CC1(C)S[C@@H]2[C@H](NC(=O)[C@H](NC(=O)N3CCN(S(C)(=O)=O)C3=O)c3ccccc3)C(=O)N2[C@H]1C(=O)O	-5.36
CS(=O)(=O)N(Cc1ccco1)CC(O)Cn1c2ccccc2c2ccccc21 (stereo not drawn)	-2.89
Cc1ccccc1OCC(O)CO (stereo not drawn)	21.7
CC(C)N1CCN(c2ccc(C(=O)c3c(-c4ccc(O)cc4)sc4cc(O)ccc34)cc2)CC1	-1.71
O=C(O)CCCCN(CCc1ccccc1OCc1ccc(CCc2ccccc2)cc1)Cc1ccc(C(=O)O)cc1	-4.45
C1CCC(NC2CCCCC2)CC1	0.14
Cc1cccc(N2CC(CO)OC2=O)c1 (stereo not drawn)	0.16
O=c1[nH]c(CCl)nc2sc3c(c12)CCCC3	-8.45
CC(=O)NC[C@H]1CN(c2ccc(-c3ccc(CNCc4cnn[nH]4)cc3)c(F)c2)C(=O)O1	0.63
O=C(O)C(O)[C@H](O)[C@@H](O)[C@H](O)[C@H](O)CO (stereo partly drawn)	3.35
CCOC(=O)C1=CCCC[C@H]1S(=O)(=O)Nc1ccc(F)cc1Cl	-0.91

Other studies, line by line
Spike glycoprotein: Spike glycoprotein (Severe acute respiratory syndrome coronavirus 2, UniProt P0DTC2)
CAMK2A: Calcium/calmodulin-dependent protein kinase type II subunit alpha (CAMK2A, Homo sapiens, UniProt Q9UQM7)
Chain of UniProt Q9UQM7 (whole entry, looked up): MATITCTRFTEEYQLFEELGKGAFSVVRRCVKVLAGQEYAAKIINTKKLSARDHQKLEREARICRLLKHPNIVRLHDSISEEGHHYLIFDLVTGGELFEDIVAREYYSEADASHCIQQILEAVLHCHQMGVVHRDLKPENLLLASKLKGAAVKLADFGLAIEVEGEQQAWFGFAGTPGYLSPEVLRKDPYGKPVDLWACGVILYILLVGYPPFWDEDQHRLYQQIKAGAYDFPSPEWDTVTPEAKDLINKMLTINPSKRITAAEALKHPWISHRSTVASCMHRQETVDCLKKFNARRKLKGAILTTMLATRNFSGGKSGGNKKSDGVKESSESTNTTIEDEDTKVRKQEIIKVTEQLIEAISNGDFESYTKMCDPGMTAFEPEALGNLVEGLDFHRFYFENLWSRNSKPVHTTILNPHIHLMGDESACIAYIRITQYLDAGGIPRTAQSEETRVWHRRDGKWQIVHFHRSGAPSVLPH
SMILES	tested on	test	system	conditions	how to read	endpoint	result
O=C(/C=C/c1ccc(O)c(O)c1/C=C/c1ccc(O)c(O)c1)O[C@H](Cc1ccc(O)c(O)c1)C(=O)O	Spike glycoprotein	binding	–	–	–	Kd	27.1 µM
Nc1ncnc2c([C@@H]3N[C@H](CO)[C@@H](O)[C@H]3O)c[nH]c12	Zaire ebolavirus	antibody staining	human macrophages	100 µM	–	antigen-positive cells	2.31%
O=c1cc(-c2ccc(O)c(O)c2)oc2cc(O)cc(O)c12	Spike glycoprotein	binding, biolayer interferometry	–	–	–	Kd	97 µM
CC(C)[C@H](NC(=O)[C@@H](NC(=O)[C@H](CC(=O)O)NC(=O)[C@H](CO)NC(=O)[C@@H](N)CCC(N)=O)[C@@H](C)O)C(=O)N[C@@H](Cc1ccccc1)C(=O)N[C@@H](CC(=O)O)C(=O)N[C@@H](Cc1ccc(O)cc1)C(=O)N[C@@H](Cc1ccc(O)cc1)C(=O)O	HLA class I histocompatibility antigen, A alpha chain, allele A*01:01 (Homo sapiens, UniProt P04439)	biochemical	–	–	–	IC50	0.00046 µM
N=C(N)Nc1ccc(C(=O)Oc2ccc3cc(C(=N)N)ccc3c2)cc1	Spike glycoprotein, RBD; with ACE2 (Severe acute respiratory syndrome coronavirus 2, UniProt P0DTC2)	binding, inhibitor	–	–	–	IC50	no inhibition
COc1cc(C2C(C#N)=C(N)Oc3c2c(C)nn3-c2ccc(Cl)cc2)cc(OC)c1OC (stereo not drawn)	SARS-CoV-2	viral replication	Vero	10 µM	–	inhibition	77.7%
Cc1cn([C@H]2C[C@H](N=[N+]=[N-])[C@@H](CO)O2)c(=O)[nH]c1=O	HIV-1	viral replication	human PBMC, subtype A 92RW020, CCR5-tropic clinical isolate	–	–	EC50	0.00143 ± 0.00093 µM
C=C1[C@H](CO)[C@@H](O)C[C@@H]1n1cnc2c(=O)[nH]c(N)nc21	HEK-293T	viral entry	–	10 µM, 16 h	baseline: vehicle	GFP-positive cells	85.8%
Cn1c(C(=O)Nc2ccc3c(c2)OCCO3)cc2c(=O)n3ccccc3nc21	SARS-CoV-2	viral replication	Vero E6	–	–	EC50	0.052 µM
CN1CCN(C2Cc3ccccc3Sc3ccc(Cl)cc32)CC1 (stereo not drawn)	HeLa	Ebola VLP entry	–	–	–	IC50	7.69 µM
O=C1C[C@@H]2OCC=C3CN4CC[C@]56c7ccccc7N1[C@H]5[C@H]2[C@H]3C[C@H]46	Plasmodium berghei	–	Huh-7, liver stage	10 µM, 24 h	baseline: control	parasite load	83.6%
Cn1cnc(Cn2c(=O)[nH]/c(=N\c3cc4cn(C)nc4cc3Cl)n(Cc3cc(F)c(F)cc3F)c2=O)n1	–	–	human, moderate renal impairment	oral, 375 mg, decreased GFR TEAE, moderate severity	–	patients with adverse event	12.5%
CN(O)C(=O)COC(c1ccc(F)cc1F)P(=O)(O)O (stereo not drawn)	Yersinia pestis	–	A1122	24 h	–	MIC	> 512 µg/mL
C=C(C)[C@@H]1[C@H]2OC(=O)[C@@H]1[C@]1(O)C[C@H]3O[C@]34C(=O)O[C@H]2[C@]14C	mouse MPNST tumor cells	high-content immunofluorescence imaging, item: nuclear SOX9	–	10 µM, 12 h, mean of 2 replicates	baseline: DMSO control, higher = more nuclear SOX9	nuclear SOX9 intensity	98.8 % of DMSO
COc1cc(C(=O)NS(=O)(=O)c2ccccc2C)ccc1Cc1cn(C)c2ccc(NC(=O)OC3CCCC3)cc12	HEK-293T/ACE2	–	–	concentration not given, 16 (unit not given)	baseline: vehicle	viability	99.6%
CN[C@@H](Cc1c[nH]c2ccccc12)C(=O)O	CAMK2A	enzyme activity, inhibitor	–	10 µM	–	inhibition	-19%
CCOC(=O)Nc1ccc(NCc2ccc(F)cc2)cc1N	Kcnq5 (Rattus norvegicus, UniProt F1LY25)	whole-cell patch clamp	rat calyx of Held neurons	5 to 10 µM	–	outward K+ current increase	41 ± 4%
N#CCc1ccc(O)cc1	CAMK2A	enzyme activity, inhibitor	–	10 µM	–	inhibition	-42%
COc1ccc(CCN2CCC(Nc3nc4ccccc4n3Cc3ccc(F)cc3)CC2)cc1	mouse MPNST tumor cells	high-content nuclear imaging, item: cell number	–	10 µM, 12 h, mean of 2 replicates	baseline: plate mean, higher = more cells	nuclei count	-6.61 z-score
O=C(O)c1ccc(-c2cccc(/C=N/NC(=O)c3ccc(O)c(O)c3)c2)cc1	Gag-Pol polyprotein, reverse transcriptase A502G/D256G (gag-pol, Human immunodeficiency virus type 1 group M subtype B, UniProt P04585, A1089G/D843G)	RNase H activity, inhibitor	HIV-1	–	–	IC50	6.5 ± 2.1 µM
CN(C)c1ccc(N(Cc2cc(Cl)cs2)C(=O)Cc2cncc3ccccc23)cc1	Replicase polyprotein 1ab, main protease (rep, Severe acute respiratory syndrome coronavirus 2, UniProt P0DTD1)	binding, MST	–	–	–	Kd	0.24 µM

Some of these lines once more (block 2):
SMILES	inhibition [%]
COc1ccc(/C=C/C(=O)Nc2ccccc2C(=O)O)cc1OC	9.3
CC(=O)NC[C@H]1CN(c2ccc(-c3ccc(CNCc4cnn[nH]4)cc3)c(F)c2)C(=O)O1	0.63
O=c1[nH]c(CCl)nc2sc3c(c12)CCCC3	-8.45
